Published values from different studies.
Numbered parts are unrelated; each lists some results of a single study.

Sample 1 — method: protein-binding microarray; form: double-stranded DNA, one strand shown; matrix: in vitro; concentration: 0.8 µM; notes: whole 60-bp probe, no competitor; reading: higher = stronger binding; shared flanks, not repeated: … GTCTTGATTCGCTTGACGCTGCTG
Target: Centromere-binding protein 1, full length, N-terminal tag (CBF1, Saccharomyces cerevisiae, UniProt P17106, residues 1-351)
UniProt P17106, sequence (whole entry, looked up): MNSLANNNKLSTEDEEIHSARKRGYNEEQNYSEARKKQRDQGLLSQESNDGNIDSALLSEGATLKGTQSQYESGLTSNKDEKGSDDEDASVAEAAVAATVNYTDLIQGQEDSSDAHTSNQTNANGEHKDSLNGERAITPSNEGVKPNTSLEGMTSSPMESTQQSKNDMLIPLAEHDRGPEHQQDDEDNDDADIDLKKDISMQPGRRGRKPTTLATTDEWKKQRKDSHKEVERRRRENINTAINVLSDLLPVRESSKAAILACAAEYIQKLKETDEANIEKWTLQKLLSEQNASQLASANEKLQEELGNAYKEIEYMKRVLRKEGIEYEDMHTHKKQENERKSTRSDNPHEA
| Sequence | fluorescence intensity [a.u.] |
| --- | --- |
| CTAAGACAGTGACAAAACGTGATAGATTACATATTC | 1190 |
| TGTACGAAGCTATATGATGAATCTATAGTAGTTAGG | 525 |
| CCTAACTACTATATGGTCATTTAATAGCTTCGTACA | 553 |
| GAACTATGGTACAAGCACGTTCGCCTCATTCATTAG | 526 |
| GAATCCAGTTCACATCAGTTGAGTAGAGAATAGTAG | 571 |
| CTAGGCCCTCACTTTTATCTGATGCAATTTCTATTC | 519 |
| CTAAAACTATTTTCCCCCGTGAGACAGCGACTGTTC | 526 |
| CCTAACTACTATACATTCGTGCTATAGCTTCGTACA | 523 |
| GAATTTATTTCCCCTCATGATAAAACAAGATCTTAG | 547 |
| CCTAACTACTATAAGCACGTGACATAGCTTCGTACA | 19200 |
| CTAAGTTCTGTATATCACGATCAAGATATCATATTC | 586 |
| GAAAGAAAGTGATGTTCCGTGACCTTTTTTATTTAG | 887 |
| GAATGTTGTTGTCAACACATGAAAAGTTCCGTATAG | 516 |
| GAAAATCGAAGTGCCCACGTGCTGCTCATTCTCTAG | 6040 |
| GAAACTTATTTAGAACACGTTCACACTGAGTAATAG | 692 |
| CTATCATCAGTCCCTGATGTCTTGCTCTTTCCTTTC | 544 |
| CTAGAAGTGATTGGTGTCACGATGATAAAAATTTTC | 960 |
| CTAAACGTAACTTAGTATCACATGTATTAGTATTTC | 2140 |
| CTAGATTTTTCAGGTGATGAGGTGGAGCTGGAGTTC | 732 |
| GAATCAAGTTGGTGTCACGTCACGTGCTTTTCATAG | 19700 |
| GAAGTTAGTTTGCAGCACATGAGTAGCAGTGGCTAG | 610 |
| GAAAGCTATGTTTGCCACGTAGTAGCTACAATATAG | 498 |

Sample 2 — method: protein-binding microarray; form: double-stranded DNA, one strand shown; matrix: in vitro; concentration: 940 nM top; notes: 60-bp whole probe; together with: salmon DNA 0.4 mg/ml; relative to: random background probes; reading: higher = stronger binding; shared flanks, not repeated: GCCTAGCAC … GTCTTGATTCGCTTGACGCTGCTG
Target: Interferon regulatory factor 5, full length, phosphomimetic (IRF5, Homo sapiens, UniProt Q13568-2, residues 1-514, S451D/S453D/S456D/S462D)
| Sequence | fitted relative affinity [z-score] |
| --- | --- |
| TTAGGCCTGCTTTTCCTTTAGTGCTAG | 0.0496 |
| CTTTTTAGAAATTTCTTTCTGTGCTAG | 0.482 |
| GACGATTTCAATATCGAGACGTGCTAG | 0.549 |
| GACGGTATTGGACTGGGGACGTGCTAG | -0.144 |
| TTAGATTTCAGTATCGTTTAGTGCTAG | 3.4 |
| TTAGGTCTCGGTCTCGTTTAGTGCTAG | 4.83 |
| GACGAACAGGGGTTTCGAGACGTGCTA | 1.86 |
| TTAGGGTTCCTTCTCCTTTAGTGCTAG | 0.219 |
| GACGATCTCAGACGGGAGACGTGCTAG | -0.349 |
| CTAGGTTTCCTTTTCCTTTAGTGCTAG | 1.41 |
| TGGGTAATGCTTCTGTATTCGTGCTAG | -0.125 |
| GGAGCGCCAGGCCCCGGCAGGTGCTAG | -0.896 |
| ATCATTCTCACTGCAGCCTTGTGCTAG | 2.4 |
| AGCTACTGAGTGGCAACACAGTGCTAG | -0.677 |
| GACGGTTTCGGGAATCGGGACGTGCTA | 7.34 |
| TTAGGTCTCGGTTTTGGTTAGTGCTAG | 5.48 |
| GACGGTTCCATTTTCCTGACGTGCTAG | 0.925 |
| TGAGGTCTCGGTATCGGTTAGTGCTAG | 5.79 |
| CACGGTTTCGGTCTCGGGACGTGCTAG | 11.8 |
| TTAGGACTGGGACTGGCTTAGTGCTAG | -0.353 |
| GGCCTCTCTGTTTTCCTGTTGTGCTAG | 1.6 |
| GAGACTTTGCTCTGTGCATAGGTGCTA | -0.282 |
| CTCATTCTCTGCTTGCGTCTGTGCTAG | 1.79 |
| TCATGCTCATTTTTCAGACTGTGCTAG | 0.473 |
| TTCGGTATCGGTCTCGGTTAGTGCTAG | 10.4 |

Sample 3 — method: RNAcompete; form: RNA; matrix: in vitro; concentration: 20 nM; notes: 7-mer, probes averaged, single round; relative to: mean of 7-mers; reading: higher = stronger binding
Target: PABPC1L2, full length, GST fusion (mouse, UniProt A0ABA7IW68)
Residues (chain): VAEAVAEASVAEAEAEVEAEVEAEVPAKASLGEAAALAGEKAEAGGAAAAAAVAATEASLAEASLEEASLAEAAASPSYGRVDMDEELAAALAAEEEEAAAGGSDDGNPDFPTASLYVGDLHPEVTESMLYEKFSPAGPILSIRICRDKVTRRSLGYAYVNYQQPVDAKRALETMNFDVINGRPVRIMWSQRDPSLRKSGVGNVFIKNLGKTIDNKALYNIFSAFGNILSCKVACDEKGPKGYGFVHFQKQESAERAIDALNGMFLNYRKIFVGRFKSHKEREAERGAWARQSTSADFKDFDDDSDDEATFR
| Sequence | 7-mer Z-score |
| --- | --- |
| AUAAGCA | 0.0497 |
| AUUUUUG | -0.0301 |
| UCUCAGG | -0.306 |
| AGGUAUG | -0.0772 |
| CAGUUGA | -0.126 |
| GUCGGAC | -0.179 |
| AUGCGAU | -0.0609 |
| CUUUAUA | 0.0134 |
| CCUAGGG | -0.151 |
| GAGAAGA | 0.276 |
| CAUCUAU | -0.298 |
| UAAAGCG | 0.867 |
| AACAAUC | 0.55 |
| GAGCUAG | -0.0935 |
| AUUUUUC | -0.17 |
| UAAUAUG | -0.139 |
| GGAACUG | 0.0587 |
| UUUUCAU | -0.431 |
| GGUUUUG | -0.318 |
| CGAAUGC | -0.177 |
| ACCCCAA | -0.132 |
| UUGCCUC | -0.387 |
| CGCAUCG | -0.171 |
| GUCCAGG | -0.0518 |

Sample 4 — method: universal PBM; form: double-stranded DNA, one strand shown; matrix: in vitro; concentration: not given; reading: higher = stronger binding
Target: Sal-like protein 4, full length isoform B (SALL4, Homo sapiens, UniProt Q9UJQ4-2, residues 1-616)
Notes: 8-mer, flanks averaged, mean of replicates
Construct (chain): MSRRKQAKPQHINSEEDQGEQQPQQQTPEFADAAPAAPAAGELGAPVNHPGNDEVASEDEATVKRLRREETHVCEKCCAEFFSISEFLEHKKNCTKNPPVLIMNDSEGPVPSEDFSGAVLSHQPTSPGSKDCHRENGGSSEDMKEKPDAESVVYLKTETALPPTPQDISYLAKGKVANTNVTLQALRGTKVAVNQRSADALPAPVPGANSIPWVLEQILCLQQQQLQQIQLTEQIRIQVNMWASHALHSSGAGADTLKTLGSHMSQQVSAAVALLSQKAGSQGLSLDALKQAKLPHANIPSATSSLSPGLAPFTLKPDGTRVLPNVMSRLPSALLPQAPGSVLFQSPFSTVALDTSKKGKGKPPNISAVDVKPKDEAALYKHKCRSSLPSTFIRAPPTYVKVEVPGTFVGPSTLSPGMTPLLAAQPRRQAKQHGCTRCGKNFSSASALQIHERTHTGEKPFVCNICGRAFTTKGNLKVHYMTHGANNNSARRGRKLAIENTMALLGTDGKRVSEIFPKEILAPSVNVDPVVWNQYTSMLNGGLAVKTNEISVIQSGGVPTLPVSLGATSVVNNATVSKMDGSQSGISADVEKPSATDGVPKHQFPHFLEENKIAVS
| Sequence | E-score |
| --- | --- |
| ATAGTCGA | 0.0912 |
| GCGGCCAA | -0.249 |
| GATTGAAA | 0.242 |
| CTCGAATC | -0.147 |
| CATATTAC | 0.393 |
| ATCTACCC | -0.0729 |
| AAGCGCTT | 0.143 |
| CCCAGACC | -0.26 |
| GCTCAGGA | -0.0984 |
| AGAGCGGG | -0.242 |
| AACGTAGT | 0.153 |
| CAATCCGG | -0.281 |
| GGGACTAC | -0.117 |
| GTTTACCA | 0.104 |
| ACGACTCA | -0.126 |
| GCGTTCAC | -0.0752 |
| GAAGCGGA | -0.178 |
| GCGCCCAC | -0.289 |
| AATCATCT | 0.116 |
| ATCGGTAG | 0.157 |
| CCGTAATC | -0.0727 |
| GAAAAAGC | -0.0275 |
| AGGGGATC | -0.0775 |
| AGCGGACC | -0.293 |
| GGGGCACC | -0.302 |

Some of these lines once more (sample 2):
| Sequence | fitted relative affinity [z-score] |
| --- | --- |
| ATCATTCTCACTGCAGCCTTGTGCTAG | 2.4 |
| AGCTACTGAGTGGCAACACAGTGCTAG | -0.677 |
| GACGGTTTCGGGAATCGGGACGTGCTA | 7.34 |
| TTAGGTCTCGGTTTTGGTTAGTGCTAG | 5.48 |
| GACGGTTCCATTTTCCTGACGTGCTAG | 0.925 |
| TGAGGTCTCGGTATCGGTTAGTGCTAG | 5.79 |
| CACGGTTTCGGTCTCGGGACGTGCTAG | 11.8 |
| TTAGGACTGGGACTGGCTTAGTGCTAG | -0.353 |
| GGCCTCTCTGTTTTCCTGTTGTGCTAG | 1.6 |
